Measurements pooled from the literature.
Compare with care: the assays were run in different laboratories. Several values in a cell are separate wells, animals, samples, runs or records. Numbers after ± are the reported error.
Chain of UniProt Q86WV6 (whole entry, unmodified, looked up): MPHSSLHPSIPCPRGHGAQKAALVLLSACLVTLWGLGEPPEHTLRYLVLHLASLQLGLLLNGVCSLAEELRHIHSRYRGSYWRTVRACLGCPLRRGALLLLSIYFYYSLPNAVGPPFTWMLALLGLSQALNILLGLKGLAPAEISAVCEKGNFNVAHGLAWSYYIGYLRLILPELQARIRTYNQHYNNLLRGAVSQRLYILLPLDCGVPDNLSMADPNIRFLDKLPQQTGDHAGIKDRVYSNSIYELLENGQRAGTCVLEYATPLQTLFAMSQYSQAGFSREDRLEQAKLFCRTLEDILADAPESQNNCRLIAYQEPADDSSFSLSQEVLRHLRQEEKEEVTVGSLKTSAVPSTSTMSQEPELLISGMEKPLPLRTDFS

With `N#C[C@@H]1CC(F)(F)CN1C(=O)CNC(=O)c1ccnc2ccc(OCCCN3CCN(C(=S)Nc4ccc(C[C@H]5CN(Cc6ccccn6)CCN(Cc6ccccn6)CCN(Cc6ccccn6)CCN5Cc5ccccn5)cc4)CC3)cc12` the intact complex was 100% (iTLC; mouse serum; 72 h, 37 °C, lead-203-labelled).
`CN(Cc1ccccc1)C(=O)CN1CCN(CC(=O)[O-])CCN(Cc2cccc(C(=O)[O-])n2)CC1.[18F-].[Sc+3]` has a tracer uptake of 0.98 %ID/g (mouse, spleen; intravenous, 1 h).
`Cc1ncsc1-c1ccc(C(C)NC(=O)C2CC(O)CN2C(=O)C(NC(=O)CCCCCCCCCCN2CCCC(Nc3ncc(Cl)c(Nc4ccccc4S(=O)(=O)C(C)C)n3)C2)C(C)(C)C)cc1` (stereo not shown): “log2 fold change” -1.46 (22Rv1; RNA-seq, refers to: SALL2 mRNA; concentration not given; relative to: DMSO).
`CCCC[C@H](NC(=O)CCCCCCCNC(=O)CN1CCN(CC(=O)O)CCN(CC(=O)O)CC1)C(=O)N[C@H]1CC(=O)NCCCC[C@@H](C(N)=O)NC(=O)[C@H](Cc2c[nH]c3ccccc23)NC(=O)[C@H](CCCNC(=N)N)NC(=O)[C@@H](Cc2ccccc2)NC(=O)[C@H](Cc2c[nH]cn2)NC1=O` [technetium-99m labelled] has a tissue uptake of 0.07 ± 0.01 %ID/g (C57 mouse, spleen; intravenous, 0.037 MBq, 24 h).
Under “log2 fold change”, `COC1CN([C@H]2CC[C@H]([C@@]3(C)Oc4c(Cl)cc(C(=O)NCc5c(SC)cc(C)[nH]c5=O)c(C)c4O3)CC2)C1` is recorded as 1.14 (RNA-seq, refers to: SPATA7; human, whole blood; dose not given, 24 h; relative to: pretreatment baseline).
`CC(C)C[C@@H](NC(=O)[C@@H](CC(C)C)NC(=O)[C@@H](CC(=O)O)NC(=O)[C@@H](CC(C)C)NC(=O)[C@@H](CC(C)C)NC(=O)[C@@H](CC(C)C)NC(=O)[C@H](NC(=O)[C@@H](CC(=O)O)NC(=O)[C@H](NC(=O)[C@H]1CCCN1C(=O)[C@@H](Cc1ccccc1)NC(=O)[C@@H](CC(C)C)NC(=O)[C@@H](CC(C)C)NC(=O)[C@@H](CC(=O)O)NC(=O)[C@@H](CC(C)C)NC(=O)[C@@H](Cc1ccc(O)cc1)NC(=O)[C@@H](C)NC(=O)[C@@H](CCCNC(=N)N)NC(=O)[C@@H](Cc1c[nH]c2ccccc12)NC(=O)[C@H]1CCCN1C(=O)[C@@H](CC(N)=O)NC(=O)[C@@H](CCC(N)=O)NC(=O)[C@@H](CC(=O)O)NC(=O)[C@@H](CC(=O)O)NC(=O)[C@@H](CSC1CC(=O)N(CCNC(=O)CN2CCN(CC(=O)O)CCN(CC(=O)O)CC2)C1=O)NC(=O)[C@@H](C)N)[C@H](C)O)[C@H](C)O)C(=O)N[C@H](Cc1c[nH]c2ccccc12)C(=O)O` (stereo partly shown) [fluorine-18 labelled] has a tissue uptake of 29.3 %ID/g (female C57BL/6 mice, B16-F10 melanoma, blood; intravenous, 1 h).
`C=C1CC[C@H](OCCCNC(=O)CCOCCOCCOCCOCCOCCOCCOCCOCCOCCOCCOCCOCCOCCOCCOCCOCCOCCOCCOCCOCCOCCOCCOCCOCCOCCOCCOCCOCCOCCOCCOCCOCCOCCOCCOCCOCCNC(=O)CCN2C(=O)CC(SC[C@H](NC(=O)[C@H](Cc3ccccc3)NC(=O)[C@H](CC(N)=O)NC(=O)[C@H](Cc3c[nH]cn3)NC(=O)[C@@H](NC(=O)[C@H](CC(=O)O)NC(=O)[C@H](CCC(N)=O)NC(=O)[C@H](CC(C)C)NC(=O)[C@H](CCCCN)NC(=O)[C@H](CCCCN)NC(=O)[C@H](CCCNC(=N)N)NC(=O)[C@H](CC(C)C)NC(=O)[C@H](Cc3c[nH]c4ccccc34)NC(=O)[C@H](CCC(=O)O)NC(=O)[C@@H](NC(=O)[C@H](CCCNC(=N)N)NC(=O)[C@H](CCC(=O)O)NC(=O)[C@H](CCSC)NC(=O)[C@H](CO)NC(=O)[C@H](CC(N)=O)NC(=O)[C@H](CC(C)C)NC(=O)[C@H](Cc3c[nH]cn3)NC(=O)[C@H](CCCCN)NC(=O)CNC(=O)[C@H](CC(C)C)NC(=O)[C@H](CC(N)=O)NC(=O)[C@H](Cc3c[nH]cn3)NC(=O)[C@H](CCSC)NC(=O)[C@H](CC(C)C)NC(=O)[C@H](CCC(N)=O)NC(=O)[C@@H](NC(=O)[C@H](CCC(=O)O)NC(=O)[C@H](CO)NC(=O)[C@@H](NC(=O)[C@@H](N)CO)C(C)C)[C@@H](C)CC)C(C)C)C(C)C)C(=O)O)C2=O)C/C1=C/C=C1\CCC[C@]2(C)[C@@H]([C@H](C)CCCC(C)(C)O)CC[C@@H]12` (stereo partly shown) has a bioavailability of 9.7% (rat, plasma; subcutaneous, 300 µg/kg, single dose).
For `C#Cc1ccc2nc([C@H](CCNC(=N)c3ccc([N+](=O)[O-])o3)NC(=O)c3noc(-c4cc(F)ccc4F)n3)[nH]c2c1`, the EC50 was 1.5 ± 0.1 µM (STING1 (Homo sapiens, UniProt Q86WV6, H232R); reporter gene, inhibitor; THP1-Dual KI-hSTING-R232; 24 h, 1 h preincubation, together with: diABZI 500 nM).
For `CC(C)C[C@H](NC(=O)[C@H](Cc1ccc(O)cc1)NC(=O)[C@@H](CCCNC(=N)N)NC(=O)[C@@H](CO)NC(=O)[C@H](Cc1ccccc1)NC(=O)[C@H](CC1CCCCC1)NC(=O)[C@H](CC(=O)O)NC(=O)CN1CCN(CC(=O)O)CCN(CC(=O)O)CCN(CC(=O)O)CC1)C(=O)N[C@@H](Cc1c[nH]c2ccccc12)C(=O)N[C@@H](CO)C(=O)O` [copper-64 labelled], the activity concentration was 492 Bq/mL and 474 Bq/mL and 650 Bq/mL and 573 Bq/mL and 703 Bq/mL and 410 Bq/mL (human, spleen; concentration not given, 24 h).
`CC(C)C[C@H](NC(=O)[C@@H](CCCCNC(=O)[C@@H](Cc1ccccc1)NC(=O)CCCCCNC(=O)CN1CCN(CC(=O)O)CCN(CC(=O)O)CCN(CC(=O)O)CC1)NC(=O)[C@H](Cc1ccc(O)cc1)NC(=O)[C@H](CO)NC(=O)[C@H](Cc1c[nH]c2ccccc12)NC(=O)[C@H](Cc1c[nH]cn1)NC(=O)[C@@H]1CCC(=O)N1)C(=O)N[C@@H](CCCNC(=N)N)C(=O)N1CCC[C@H]1C(=O)NCC(N)=O` [indium-111 labelled] has a tissue uptake of 0.05 ± 0.01 %ID/g (female athymic nude mice, brain; intravenous, 0.037 MBq, 0.5 h).
`C[C@@H](O)[C@@H]1NC(=O)[C@H](CCCCN)NC(=O)[C@@H](Cc2c[nH]c3ccccc23)NC(=O)[C@H](Cc2ccc(O)cc2)NC(=O)[C@@H](NC(=O)[C@@H](Cc2ccccc2)NC(=O)CN2CCN(CC(=O)O)CCN(CC(=O)O)CCN(CC(=O)O)CC2)CSSC[C@@H](C(=O)N[C@H](CO)[C@@H](C)O)NC1=O` [gallium-67 labelled] has a tissue uptake of 0.32 ± 0.06 %ID/g (gamma counting; ICR mice, male, liver; iv, 11 kBq/mouse, 3 h).
`N#C[C@@H]1CC(F)(F)CN1C(=O)CNC(=O)c1ccnc2ccc(OCCCN3CCN(C(=S)Nc4ccc(C[C@H]5CN(CC(N)=O)CCN(CC(N)=O)CCN(CC(N)=O)CCN5CC(N)=O)cc4)CC3)cc12` has an intact complex of 100% (iTLC; human serum; 72 h, 37 °C, lead-203-labelled).
The tissue uptake of `CCCC[C@H](NC(=O)COCCOCCNC(=O)CN1CCN(CC(=O)O)CCN(CC(=O)O)CC1)C(=O)N[C@H]1CC(=O)NCCCC[C@@H](C(N)=O)NC(=O)[C@H](Cc2c[nH]c3ccccc23)NC(=O)[C@H](CCCNC(=N)N)NC(=O)[C@@H](Cc2ccccc2)NC(=O)[C@H](Cc2c[nH]cn2)NC1=O` [technetium-99m labelled] is reported as 0.13 ± 0.03 %ID/g (C57 mouse, bone; intravenous, 0.037 MBq, 24 h).
